Results pooled from the literature.
Compare with care: the assays were run in different laboratories. ± gives the spread as reported.
Organism: Klebsiella pneumoniae

The MIC of `COc1ccc2c(c1)C=[N+]1C3CCCCC3[N+]3=Cc4c(ccc5ccc(OC)cc45)[O][Au-]13[O]2.F[P-](F)(F)(F)(F)F` (centres unmarked) is reported as > 20 µM (bacterial growth, broth microdilution; carbapenem-resistant; 24 h).
With `CC(C)C[C@H](NC(=O)CN)C(=O)N[C@@H](CC(C)C)C(=O)N[C@@H](CCCCN)C(=O)N[C@@H](CC(C)C)C(=O)N[C@@H](CC(C)C)C(=O)N[C@@H](CCCCN)C(=O)N[C@@H](CCCCN)C(=O)N[C@@H](CC(C)C)C(=O)N[C@@H](CC(C)C)C(=O)N[C@@H](CCCCN)C(=O)N[C@@H](CC(C)C)C(=O)N[C@@H](CC(C)C)C(=O)N[C@@H](CCCCN)C(N)=O` the MIC was > 19 µM (ATCC 700603, CAMHB; 18 h, 37 °C).
`NCCCC[C@@H]1NC(=O)[C@@H](Cc2c[nH]c3ccccc23)NC(=O)[C@H](Cc2c[nH]c3ccccc23)NC(=O)[C@@H](N)CSCc2ccc(cc2)CSC[C@@H](C(N)=O)NC(=O)[C@@H](Cc2c[nH]c3ccccc23)NC(=O)[C@H](Cc2c[nH]c3ccccc23)NC(=O)[C@@H](Cc2c[nH]c3ccccc23)NC(=O)[C@H](CCCCN)NC(=O)[C@@H](CCCCN)NC(=O)[C@H](CCCCN)NC(=O)[C@@H](CCCCN)NC1=O` has an MIC of > 64 µg/mL.
The MIC of `COc1ccc2ccc3c(c2c1)C=[N+]1C2CCCCC2[N+]2=Cc4ccc(C)cc4[O][Au-]21[O]3.F[P-](F)(F)(F)(F)F` (centres unmarked) is reported as > 20 µM (bacterial growth, broth microdilution; carbapenem-resistant; 24 h).
`CC(C)C[C@H](NC(=O)[C@H](CCCCN)NC(=O)[C@H](CCCCNC(=O)[C@H](CC(C)C)NC(=O)[C@H](CCCCN)NC(=O)[C@H](CCCCNC(=O)[C@H](CC(C)C)NC(=O)[C@H](CCCCN)NC(=O)[C@H](CCCCNC(=O)[C@H](CC(C)C)NC(=O)[C@@H](N)CCCCN)NC(=O)[C@H](CC(C)C)NC(=O)[C@@H](N)CCCCN)NC(=O)[C@H](CC(C)C)NC(=O)[C@H](CCCCN)NC(=O)[C@H](CCCCNC(=O)[C@H](CC(C)C)NC(=O)[C@@H](N)CCCCN)NC(=O)[C@H](CC(C)C)NC(=O)[C@@H](N)CCCCN)NC(=O)[C@H](CC(C)C)NC(=O)[C@H](CCCCN)NC(=O)[C@H](CCCCNC(=O)[C@H](CC(C)C)NC(=O)[C@H](CCCCN)NC(=O)[C@H](CCCCNC(=O)[C@H](CC(C)C)NC(=O)[C@@H](N)CCCCN)NC(=O)[C@H](CC(C)C)NC(=O)[C@@H](N)CCCCN)NC(=O)[C@H](CC(C)C)NC(=O)[C@H](CCCCN)NC(=O)[C@H](CCCCNC(=O)[C@H](CC(C)C)NC(=O)[C@@H](N)CCCCN)NC(=O)[C@H](CC(C)C)NC(=O)[C@@H](N)CCCCN)C(N)=O` has an MIC of > 64 µg/mL (broth microdilution; NCTC 418; 37 °C).
For `CC(C)[C@@H]1NC(=O)[C@@H]2CCCN2C(=O)[C@@H](C)NC(=O)[C@H](CO)NC(=O)[C@H](C)NC(=O)[C@H](C(C)(C)C)NC(=O)[C@H](CCO)NC(=O)[C@H](Cc2c[nH]c3ccccc23)NC(=O)[C@H](CCO)NC(=O)[C@@H](CCN)NC(=O)[C@H](CCC(N)=O)NC(=O)[C@H](CCN)NC(=O)[C@H](Cc2ccc(O)cc2)NC(=O)[C@H]([C@@H](C)O)NC1=O`, the MIC was > 64 µg/mL (broth microdilution; ATCC 11228, CAMHB with polysorbate-80; 16 h).
`COc1ccc2ccc3c(c2c1)C=[N+]1C2CCCCC2[N+]2=Cc4c(C)cccc4[O][Au-]21[O]3.F[P-](F)(F)(F)(F)F` (centres unmarked) has an MIC of 10 µM (bacterial growth, broth microdilution; carbapenem-resistant; 24 h).
With `CC[C@H](C)[C@H](NC(=O)[C@@H](CCCNC(=N)N)NC(=O)[C@H](CCCNC(=N)N)NC(=O)[C@H](CCCNC(=N)N)NC(=O)[C@H](Cc1c[nH]c2ccccc12)NC(=O)[C@H](CCCNC(=N)N)NC(=O)[C@@H]1CCCN1C(=O)[C@H](CCCNC(=N)N)NC(=O)[C@@H]1CCCN1C(=O)[C@H](CC(C)C)NC(=O)[C@H](Cc1ccc(O)cc1)NC(=O)[C@@H]1CCCN1C(=O)[C@@H]1CCCN1C(=O)[C@H](CCCCN)NC(=O)[C@H](CC(=O)O)NC(=O)[C@@H](N)C(C)C)C(=O)N[C@@H](Cc1ccc(O)cc1)C(=O)N[C@@H](CC(N)=O)C(=O)N[C@H](CCCNC(=N)N)C(N)=O` the MIC was 2 µg/mL (broth microdilution; DSM 681; 18 h).
The MIC of `COc1ccc2ccc3c(c2c1)C=[N+]1C2CCCCC2[N+]2=Cc4cccc(OC)c4[O][Au-]21[O]3.F[P-](F)(F)(F)(F)F` (centres unmarked) is reported as 10 µM (bacterial growth, broth microdilution; carbapenem-resistant clinical isolate; 24 h).
For `CC(C)C[C@H](NC(=O)[C@H](Cc1ccc(O)cc1)NC(=O)[C@@H]1CCCN1C(=O)[C@H](CCCNC(=N)N)NC(=O)[C@@H]1CCCN1C(=O)[C@H](CCCCN)NC(=O)[C@H](CC(=O)O)NC(=O)[C@@H]1CCCN1C(=O)[C@H](CCCNC(=N)N)NC(=O)C1(N)CCCCC1)C(=O)N1CCC[C@H]1C(=O)N[C@@H](CCCNC(=N)N)C(=O)N1CCC[C@H]1C(=O)N[C@@H](CCCNC(=N)N)C(=O)N1CCC[C@H]1C(=O)N1CCC[C@H]1C(=O)N[C@@H](CCCNC(=N)N)C(=O)N1CCC[C@H]1C(=O)N[C@H](C(=O)N[C@@H](CCCNC(=N)N)C(=O)N[C@@H](CSCc1cccc(CSC[C@H](NC(=O)[C@H](CCCNC(=N)N)NC(=O)[C@@H](NC(=O)[C@@H]2CCCN2C(=O)[C@H](CCCNC(=N)N)NC(=O)[C@@H]2CCCN2C(=O)[C@@H]2CCCN2C(=O)[C@H](CCCNC(=N)N)NC(=O)[C@@H]2CCCN2C(=O)[C@H](CCCNC(=N)N)NC(=O)[C@@H]2CCCN2C(=O)[C@H](CC(C)C)NC(=O)[C@H](Cc2ccc(O)cc2)NC(=O)[C@@H]2CCCN2C(=O)[C@H](CCCNC(=N)N)NC(=O)[C@@H]2CCCN2C(=O)[C@H](CCCCN)NC(=O)[C@H](CC(=O)O)NC(=O)[C@@H]2CCCN2C(=O)[C@H](CCCNC(=N)N)NC(=O)C2(N)CCCCC2)C(C)C)C(=O)NN)c1)C(=O)NN)C(C)C`, the MIC was 3.6 ± 0.7 µg/mL (bacterial growth; ATCC 13883, 100% Mueller-Hinton broth; 90 min, 37 °C, strain ATCC 13883).
With `CN[C@H](CC(C)C)C(=O)N[C@H]1C(=O)N[C@@H](CC(N)=O)C(=O)N[C@H]2C(=O)N[C@H]3C(=O)N[C@H](C(=O)N[C@H](C(=O)O)c4cc(O)cc(O)c4-c4cc3ccc4O)[C@H](O)c3ccc(c(Cl)c3)Oc3cc2cc(c3O[C@@H]2O[C@H](CO)[C@@H](O)[C@H](O)[C@H]2O[C@H]2C[C@](C)(NCc3ccc(OCc4cn(CCOCCOCCOCCC(=O)N[C@H](C(=O)N[C@@H](CCN)C(=O)N[C@H]5CCNC(=O)[C@H]([C@@H](C)O)NC(=O)[C@H](CCN)NC(=O)[C@H](CCN)NC(=O)[C@H](CC(C)C)NC(=O)[C@@H](CC(C)C)NC(=O)[C@H](CCN)NC5=O)[C@@H](C)O)nn4)c(OC)c3)[C@H](O)[C@H](C)O2)Oc2ccc(cc2Cl)[C@H]1O` the MIC was 32 µg/mL (broth microdilution; ATCC 27736; 18 to 20 h, 37 °C, 0.002% polysorbate 80).
With `C[C@@](O)(C(F)F)[C@H](NC(=O)c1ccc(C#CC#CC2CC2)cc1)C(=O)NO` the MIC was 0.0026 µg/mL (broth microdilution; 10031, CAMHB).
With `CC[C@H](C)[C@H](NC(=O)[C@H](C)NC(=O)[C@@H](NC(=O)[C@H](CC(=O)O)NC(=O)[C@H](CCCCN)NC(=O)[C@H](CO)NC(=O)[C@@H](NC(=O)[C@H](CC(N)=O)NC(=O)[C@H](C)NC(=O)[C@@H](NC(=O)[C@H](CCC(=O)O)NC(=O)[C@H](CCCCN)NC(=O)[C@@H](NC(=O)[C@@H](NC(=O)[C@H](Cc1c[nH]cn1)NC(=O)[C@H](CCCCN)NC(=O)[C@@H](NC(=O)[C@H](CCCCN)NC(=O)[C@H](CCCCN)NC(=O)[C@@H](NC(=O)[C@H](CC(C)C)NC(=O)[C@H](CCCCN)NC(=O)[C@H](CC(N)=O)NC(=O)[C@H](Cc1ccccc1)NC(=O)[C@H](CCCNC(=N)N)NC(=O)[C@H](CCCCN)NC(=O)[C@H](CCCNC(=N)N)NC(=O)[C@H](Cc1ccccc1)NC(=O)CN)C(C)C)C(C)C)[C@@H](C)O)[C@@H](C)CC)[C@@H](C)O)C(C)C)C(C)C)C(=O)N[C@H](C(=O)N[C@@H](C)C(=O)NCC(=O)N[C@@H](CO)C(=O)NCC(=O)N[C@H](C(=O)N[C@@H](C)C(=O)N[C@H](C(=O)NCC(=O)N[C@@H](C)C(=O)N[C@@H](C)C(=O)N[C@@H](CCSC)C(N)=O)C(C)C)C(C)C)C(C)C` the MIC was 8 µg/mL (isolate RKI 19/16, CAMHB).
The MIC of `CC(C)[C@H](NC(=O)[C@H](CCCCN)NC(=O)[C@H](CCCNC(=N)N)NC(=O)[C@@H](NC(=O)[C@H](C)NC(=O)[C@H](CC(N)=O)NC(=O)[C@H](CCCNC(=N)N)NC(=O)[C@@H](NC(=O)[C@H](CCCCN)NC(=O)[C@H](CCCCN)NC(=O)[C@@H](NC(=O)[C@@H](NC(=O)[C@H](CCCNC(=N)N)NC(=O)[C@H](CCCNC(=N)N)NC(=O)[C@H](Cc1c[nH]c2ccccc12)NC(=O)[C@H](Cc1c[nH]c2ccccc12)NC(=O)CN)[C@@H](C)O)C(C)C)C(C)C)C(C)C)C(=O)O` is reported as 32 µg/mL (ATCC 10031; 18 h, 37 °C).

Repeated from above:
`CC(C)C[C@H](NC(=O)[C@H](CCCCN)NC(=O)[C@H](CCCCNC(=O)[C@H](CC(C)C)NC(=O)[C@H](CCCCN)NC(=O)[C@H](CCCCNC(=O)[C@H](CC(C)C)NC(=O)[C@H](CCCCN)NC(=O)[C@H](CCCCNC(=O)[C@H](CC(C)C)NC(=O)[C@@H](N)CCCCN)NC(=O)[C@H](CC(C)C)NC(=O)[C@@H](N)CCCCN)NC(=O)[C@H](CC(C)C)NC(=O)[C@H](CCCCN)NC(=O)[C@H](CCCCNC(=O)[C@H](CC(C)C)NC(=O)[C@@H](N)CCCCN)NC(=O)[C@H](CC(C)C)NC(=O)[C@@H](N)CCCCN)NC(=O)[C@H](CC(C)C)NC(=O)[C@H](CCCCN)NC(=O)[C@H](CCCCNC(=O)[C@H](CC(C)C)NC(=O)[C@H](CCCCN)NC(=O)[C@H](CCCCNC(=O)[C@H](CC(C)C)NC(=O)[C@@H](N)CCCCN)NC(=O)[C@H](CC(C)C)NC(=O)[C@@H](N)CCCCN)NC(=O)[C@H](CC(C)C)NC(=O)[C@H](CCCCN)NC(=O)[C@H](CCCCNC(=O)[C@H](CC(C)C)NC(=O)[C@@H](N)CCCCN)NC(=O)[C@H](CC(C)C)NC(=O)[C@@H](N)CCCCN)C(N)=O` has an MIC of > 64 µg/mL (broth microdilution; NCTC 418; 37 °C).
For `CC(C)[C@@H]1NC(=O)[C@@H]2CCCN2C(=O)[C@@H](C)NC(=O)[C@H](CO)NC(=O)[C@H](C)NC(=O)[C@H](C(C)(C)C)NC(=O)[C@H](CCO)NC(=O)[C@H](Cc2c[nH]c3ccccc23)NC(=O)[C@H](CCO)NC(=O)[C@@H](CCN)NC(=O)[C@H](CCC(N)=O)NC(=O)[C@H](CCN)NC(=O)[C@H](Cc2ccc(O)cc2)NC(=O)[C@H]([C@@H](C)O)NC1=O`, the MIC was > 64 µg/mL (broth microdilution; ATCC 11228, CAMHB with polysorbate-80; 16 h).
